# Published values pooled from the literature.
# A part holds a random share of what one study measured.

# Set 1 — technique: RNA Bind-n-Seq; molecule type: RNA; matrix: in vitro; concentration: 20 nM; setting: 6-mer, flanks averaged, single round; with: 150 mM KCl; baseline: input library; reading: higher = stronger binding
# Target: TAR DNA-binding protein 43, full length, His tag (TARDBP, Homo sapiens, UniProt Q13148, residues 1-414)
Sequence,6-mer enrichment (R)
CGUGUA,0.851
CCUUCG,0.616
ACGACU,0.614

# Set 2 — technique: protein binding microarray; molecule type: double-stranded DNA, one strand shown; matrix: in vitro; concentration: not given; baseline: not given; reading: higher = stronger binding
# Target: Histone acetyltransferase KAT6A, both winged helices, GST fusion (KAT6A, Homo sapiens, UniProt Q92794, residues 1-181)
# Setting: 8-mer, flanks averaged, mean of 2 arrays, mostly near background
# Target sequence (chain): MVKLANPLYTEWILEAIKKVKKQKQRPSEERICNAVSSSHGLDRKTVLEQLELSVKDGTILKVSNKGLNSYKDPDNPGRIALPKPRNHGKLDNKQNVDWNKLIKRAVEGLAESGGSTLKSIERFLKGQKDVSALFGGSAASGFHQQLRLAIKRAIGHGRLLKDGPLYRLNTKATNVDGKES
Sequence,E-score
GGGGCAAA,-0.116
CACTGTCG,0.0102
AAGCCTGT,-0.00966
CAAGAACC,-0.0227
AGGATCGC,0.0468

# Set 3 — technique: Sort-seq; item: YFP reporter; matrix: E. coli; setting: PhoQ-PhoP variant library; with: 10 µM Mg2+; baseline: high Mg2+ state; reading: higher = stronger signaling
# Molecule: PhoQ, residues 284 288 289 292 302 303 GANMMA
target,fold induction
"PhoP, residues 12 14 15 18 19 QQAYL (Escherichia coli, UniProt P23836)",11.1
"PhoP, residues 12 14 15 18 19 LFHKL (Escherichia coli, UniProt P23836)",8.49
"PhoP, residues 12 14 15 18 19 GMGLL (Escherichia coli, UniProt P23836)",1.57

# Set 4 — technique: RNAcompete; molecule type: RNA; matrix: in vitro; concentration: 20 nM; setting: 7-mer, probes averaged, single round; baseline: mean of 7-mers; reading: higher = stronger binding
# Target: PABPC1L2, full length, GST fusion (mouse, UniProt A0ABA7IW68)
# Construct (chain): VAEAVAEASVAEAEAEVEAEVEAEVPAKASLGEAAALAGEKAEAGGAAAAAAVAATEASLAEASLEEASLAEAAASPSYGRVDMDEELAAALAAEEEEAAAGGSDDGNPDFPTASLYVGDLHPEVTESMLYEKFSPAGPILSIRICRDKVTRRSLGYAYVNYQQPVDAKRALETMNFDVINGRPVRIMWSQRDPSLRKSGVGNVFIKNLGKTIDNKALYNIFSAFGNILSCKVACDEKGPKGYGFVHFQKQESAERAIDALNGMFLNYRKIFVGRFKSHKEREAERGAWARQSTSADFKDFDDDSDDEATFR
Sequence,7-mer Z-score
AGCGCGA,-0.0373
CGUCGGU,-0.387
CCUGUGA,-0.226
GUGCUAU,-0.137
CCAGCCG,-0.374
UGUGCCC,-0.293

# Excerpt of the above (set 2):
Sequence,E-score
CACTGTCG,0.0102
AAGCCTGT,-0.00966
